Experimental data gathered from unrelated publications.
Parts stem from different laboratories: compare values within a part only. Changes are numbered by the printed parent chain.

Set 1 — method: protein-binding microarray; form: double-stranded DNA, one strand shown; matrix: in vitro; tested at: 2540 nM top; notes: 60-bp whole probe; with: salmon DNA 0.4 mg/ml; relative to: random background probes; reading: higher = stronger binding; quantity: fitted relative affinity; shared flanks, not repeated: GCCTAGCAC … GTCTTGATTCGCTTGACGCTGCTG
Target: Interferon regulatory factor 3, full length, phosphomimetic (IRF3, Homo sapiens, UniProt Q14653, residues 1-427, S386D/S396D/S398D/S402D/T404D/S405D)
Chain of UniProt Q14653 (whole entry, unmodified, looked up): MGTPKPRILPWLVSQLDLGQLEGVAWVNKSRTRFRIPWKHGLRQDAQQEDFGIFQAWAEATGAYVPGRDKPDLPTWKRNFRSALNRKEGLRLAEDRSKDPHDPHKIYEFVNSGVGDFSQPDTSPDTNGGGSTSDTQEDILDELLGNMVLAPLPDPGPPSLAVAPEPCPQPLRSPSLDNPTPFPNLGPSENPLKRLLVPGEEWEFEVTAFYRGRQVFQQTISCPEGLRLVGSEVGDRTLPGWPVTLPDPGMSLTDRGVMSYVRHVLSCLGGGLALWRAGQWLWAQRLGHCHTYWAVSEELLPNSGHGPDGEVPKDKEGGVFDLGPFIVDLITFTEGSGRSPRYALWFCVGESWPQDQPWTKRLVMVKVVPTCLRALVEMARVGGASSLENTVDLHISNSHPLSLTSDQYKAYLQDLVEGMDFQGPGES
CTCTTCTTGCATCTGGGTATGTGCTAG: 1.33 z-score
TTAGTTTTCGGTCTCGGTTAGTGCTAG: 6.12 z-score
TTAGGACTGGGTCTCGGTCAGTGCTAG: -0.778 z-score
GACGAACTGAGGACTGGAGACGTGCTA: -0.292 z-score
TTAGGACTGGGGAATGGGTTAGTGCTA: -0.936 z-score
TTAGATATCGGGTTTCGATGAGTGCTA: 1.03 z-score
TCAAATTTTAATAACACACTGTGCTAG: -0.0349 z-score
TTATATATCAGTATCGATTAGTGCTAG: 1.91 z-score
GACGATTTCGGGACGGGAGACGTGCTA: 1.52 z-score
GACTATATCGGGTATCGAGACGTGCTA: 0.343 z-score
TTAGGACTGGGACTGGGATAGTGCTAG: -0.646 z-score
GACGATTTCGGGTTTCAAGACGTGCTA: 2.7 z-score
TCACTTTTCACTTTACAACTGTGCTAG: 3.21 z-score
TCAGTTTTCCTTATTGCACTGTGCTAG: 5.39 z-score
GGTTTTTACTTTCTGAATGCGTGCTAG: 4.11 z-score
TCATTTTTTGTAATCGAACTGTGCTAG: 1.14 z-score
GACGGTATCGGGACTGGCGACGTGCTA: 1.95 z-score
GACGATTTCAGACTTGAGACGTGCTAG: 1.82 z-score
GATAATTTATAAATAAAAAAGTGCTAG: 0.00741 z-score

Set 2 — method: DHFR PCA, deep sequencing; matrix: yeast; with: (+)-ABA 0.39 µM; relative to: wild-type fitted maximum; reading: higher = stronger binding; quantity: relative binding score
Target: ABI1, truncated, D143A, DHFR fusion (Arabidopsis thaliana)
Notes: methotrexate growth selection, single substitutions
Starting sequence: PYL1, truncated, DHFR fusion (Arabidopsis thaliana); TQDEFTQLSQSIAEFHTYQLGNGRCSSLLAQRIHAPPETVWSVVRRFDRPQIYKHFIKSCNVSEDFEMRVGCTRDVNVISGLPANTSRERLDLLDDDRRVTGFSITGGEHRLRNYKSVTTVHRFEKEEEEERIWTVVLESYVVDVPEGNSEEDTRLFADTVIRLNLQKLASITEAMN
I79A: 24.7%
S63M: 16.7%
A158S: -11.6%
P50C: -11.1%
D75V: 67.7%
E128A: 50%
V121L: 1.46%
D95H: -12.1%
T6G: 46.8%
T17R: 5.99%
S104D: -13.7%
R99C: 30.9%
D65L: -2.24%
S27N: 54.1%
N114W: -17.1%
L112E: 2.09%
T1D: 44.2%

Set 3 — method: protein binding microarray; form: double-stranded DNA, one strand shown; matrix: in vitro; tested at: not given; relative to: not given; reading: higher = stronger binding; quantity: E-score
Target: Histone acetyltransferase KAT6A, both winged helices, GST fusion (KAT6A, Homo sapiens, UniProt Q92794, residues 1-181)
Notes: 8-mer, flanks averaged, mean of 2 arrays, mostly near background
Target sequence (chain): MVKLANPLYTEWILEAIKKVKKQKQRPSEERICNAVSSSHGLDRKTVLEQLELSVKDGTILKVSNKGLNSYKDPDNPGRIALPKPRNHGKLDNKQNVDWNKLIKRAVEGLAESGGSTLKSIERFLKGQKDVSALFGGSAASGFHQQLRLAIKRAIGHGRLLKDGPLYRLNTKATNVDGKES
GAAAATAC: 0.055
CCGCAGCC: 0.136
ACCCAAAC: -0.205
CAAGGGAG: -0.111
GTGCATAA: -0.0149
GGTATTCA: 0.0266
CCTCTGCA: -0.167
ACTTGCAA: -0.0176
ACGGAAGA: 0.264
CCACCCAG: -0.209
TCGAGGCA: -0.154
GCTACGCA: 0.168
AGTGAAGC: 0.0404
GAGATCTA: -0.0829
AATACCAC: -0.179
AACATGCC: 0.159
TCGGCAAA: 0.15
CCGCGTCA: 0.218
CCCGATAC: 0.0647
CACTGGCA: -0.185
CAACATTG: -0.11
AAAAAACT: -0.171
CGGAGGCC: 0.13
CACCCACC: -0.186
CAATTAAG: 0.0164

Set 4 — target: CCNE2, cyclin fold, Cln2 fusion (human); method: yeast growth competition, sequencing; matrix: yeast; notes: strong parent motif; relative to: not given; reading: higher = stronger binding; quantity: normalised enrichment score
Starting sequence: CDKN1A docking peptide (human); SKACRRLFGPVDS
R5L: 0.432
P10A: 3.66
C4A: 1.15
A3S: 0.384
L7Q: 0.25
L7K: 0.489
C4W: 1.4
F8S: 0.254
P10N: 4.03
L7C: 0.175
V11W: 4.1
F8H: 0.0926
G9M: 4.26
P10L: 2.2
V11D: 5.45
D12S: 2.75
A3W: 1
G9R: 2.28
V11L: 3.52
A3T: 2.31
L7Y: 0.409
A3E: 0.623
D12R: 1.94
R5E: -0.107
R6H: 0.891

A few entries again (set 4):
L7C: 0.175
V11W: 4.1
F8H: 0.0926
G9M: 4.26
P10L: 2.2
V11D: 5.45
D12S: 2.75
A3W: 1
G9R: 2.28
V11L: 3.52
A3T: 2.31
L7Y: 0.409
A3E: 0.623
D12R: 1.94
